Results gathered from unrelated publications.
Numbered parts are unrelated; each lists some results of a single study.
UniProt Q96Q40, sequence (whole entry, looked up): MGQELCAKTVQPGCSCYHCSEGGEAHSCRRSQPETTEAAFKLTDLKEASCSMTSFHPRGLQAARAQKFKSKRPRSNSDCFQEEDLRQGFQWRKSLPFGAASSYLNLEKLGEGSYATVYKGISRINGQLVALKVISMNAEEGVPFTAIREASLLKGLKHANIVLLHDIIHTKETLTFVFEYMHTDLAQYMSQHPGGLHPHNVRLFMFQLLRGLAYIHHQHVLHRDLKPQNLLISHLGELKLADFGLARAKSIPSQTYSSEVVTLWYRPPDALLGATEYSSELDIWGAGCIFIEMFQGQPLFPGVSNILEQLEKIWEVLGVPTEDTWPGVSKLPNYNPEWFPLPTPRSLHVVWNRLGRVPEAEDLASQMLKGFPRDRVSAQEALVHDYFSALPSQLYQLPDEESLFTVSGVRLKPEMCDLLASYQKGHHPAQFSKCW
UniProt Q38830, sequence (whole entry, looked up): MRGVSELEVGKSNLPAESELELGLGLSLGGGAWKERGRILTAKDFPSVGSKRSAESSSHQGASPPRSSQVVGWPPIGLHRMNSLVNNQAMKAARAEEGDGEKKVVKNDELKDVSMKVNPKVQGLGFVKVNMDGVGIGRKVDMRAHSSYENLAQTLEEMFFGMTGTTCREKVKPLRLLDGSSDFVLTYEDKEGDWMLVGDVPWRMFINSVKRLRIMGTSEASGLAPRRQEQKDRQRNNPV
UniProt Q9FGV1, sequence (whole entry, looked up): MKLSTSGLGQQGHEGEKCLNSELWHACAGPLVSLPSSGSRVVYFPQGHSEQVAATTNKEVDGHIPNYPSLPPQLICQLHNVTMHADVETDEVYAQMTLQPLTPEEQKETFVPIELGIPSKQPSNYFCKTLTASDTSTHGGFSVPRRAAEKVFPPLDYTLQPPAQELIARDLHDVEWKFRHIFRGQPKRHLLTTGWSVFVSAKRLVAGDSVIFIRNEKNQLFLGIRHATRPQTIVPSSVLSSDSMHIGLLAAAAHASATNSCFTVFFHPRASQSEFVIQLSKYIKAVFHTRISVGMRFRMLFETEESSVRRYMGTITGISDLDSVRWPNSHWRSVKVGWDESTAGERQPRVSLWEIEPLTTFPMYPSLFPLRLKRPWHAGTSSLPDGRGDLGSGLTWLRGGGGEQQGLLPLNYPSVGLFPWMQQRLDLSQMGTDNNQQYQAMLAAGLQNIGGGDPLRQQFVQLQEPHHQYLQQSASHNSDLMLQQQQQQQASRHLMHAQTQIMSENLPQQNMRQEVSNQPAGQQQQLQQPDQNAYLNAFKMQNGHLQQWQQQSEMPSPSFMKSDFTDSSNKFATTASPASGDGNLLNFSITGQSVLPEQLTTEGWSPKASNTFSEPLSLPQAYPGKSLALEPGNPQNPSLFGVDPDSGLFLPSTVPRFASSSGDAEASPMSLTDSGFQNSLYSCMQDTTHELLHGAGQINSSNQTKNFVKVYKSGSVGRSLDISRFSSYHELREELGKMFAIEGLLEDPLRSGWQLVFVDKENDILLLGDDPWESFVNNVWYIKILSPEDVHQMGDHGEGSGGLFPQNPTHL
UniProt Q9HBY8, sequence (whole entry, looked up): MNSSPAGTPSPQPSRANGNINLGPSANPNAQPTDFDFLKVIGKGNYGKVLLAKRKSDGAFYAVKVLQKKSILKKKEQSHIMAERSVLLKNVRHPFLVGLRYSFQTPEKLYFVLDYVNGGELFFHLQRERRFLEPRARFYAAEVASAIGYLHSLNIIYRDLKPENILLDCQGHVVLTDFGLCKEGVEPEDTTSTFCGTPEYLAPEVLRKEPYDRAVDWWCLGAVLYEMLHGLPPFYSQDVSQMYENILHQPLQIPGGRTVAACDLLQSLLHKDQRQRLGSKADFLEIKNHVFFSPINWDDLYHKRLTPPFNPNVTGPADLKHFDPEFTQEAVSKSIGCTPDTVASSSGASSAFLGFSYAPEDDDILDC
UniProt Q9C5W9, sequence (whole entry, looked up): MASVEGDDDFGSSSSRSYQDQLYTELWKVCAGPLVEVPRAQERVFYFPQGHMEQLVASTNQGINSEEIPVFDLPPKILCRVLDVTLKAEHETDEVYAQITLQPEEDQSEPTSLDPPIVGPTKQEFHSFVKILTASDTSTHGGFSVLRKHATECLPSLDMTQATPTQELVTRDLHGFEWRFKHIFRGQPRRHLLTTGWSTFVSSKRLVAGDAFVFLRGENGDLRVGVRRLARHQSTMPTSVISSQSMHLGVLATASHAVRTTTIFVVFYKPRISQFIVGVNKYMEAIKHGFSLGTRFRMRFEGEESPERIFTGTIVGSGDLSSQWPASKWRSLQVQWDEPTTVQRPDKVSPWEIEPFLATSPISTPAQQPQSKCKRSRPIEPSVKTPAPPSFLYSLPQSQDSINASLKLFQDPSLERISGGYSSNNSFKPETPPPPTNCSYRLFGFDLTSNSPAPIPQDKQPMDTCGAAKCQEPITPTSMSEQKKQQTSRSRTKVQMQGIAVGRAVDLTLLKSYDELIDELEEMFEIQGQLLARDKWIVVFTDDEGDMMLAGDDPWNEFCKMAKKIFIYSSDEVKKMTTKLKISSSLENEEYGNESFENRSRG
UniProt Q9ZTX9, sequence (whole entry, looked up): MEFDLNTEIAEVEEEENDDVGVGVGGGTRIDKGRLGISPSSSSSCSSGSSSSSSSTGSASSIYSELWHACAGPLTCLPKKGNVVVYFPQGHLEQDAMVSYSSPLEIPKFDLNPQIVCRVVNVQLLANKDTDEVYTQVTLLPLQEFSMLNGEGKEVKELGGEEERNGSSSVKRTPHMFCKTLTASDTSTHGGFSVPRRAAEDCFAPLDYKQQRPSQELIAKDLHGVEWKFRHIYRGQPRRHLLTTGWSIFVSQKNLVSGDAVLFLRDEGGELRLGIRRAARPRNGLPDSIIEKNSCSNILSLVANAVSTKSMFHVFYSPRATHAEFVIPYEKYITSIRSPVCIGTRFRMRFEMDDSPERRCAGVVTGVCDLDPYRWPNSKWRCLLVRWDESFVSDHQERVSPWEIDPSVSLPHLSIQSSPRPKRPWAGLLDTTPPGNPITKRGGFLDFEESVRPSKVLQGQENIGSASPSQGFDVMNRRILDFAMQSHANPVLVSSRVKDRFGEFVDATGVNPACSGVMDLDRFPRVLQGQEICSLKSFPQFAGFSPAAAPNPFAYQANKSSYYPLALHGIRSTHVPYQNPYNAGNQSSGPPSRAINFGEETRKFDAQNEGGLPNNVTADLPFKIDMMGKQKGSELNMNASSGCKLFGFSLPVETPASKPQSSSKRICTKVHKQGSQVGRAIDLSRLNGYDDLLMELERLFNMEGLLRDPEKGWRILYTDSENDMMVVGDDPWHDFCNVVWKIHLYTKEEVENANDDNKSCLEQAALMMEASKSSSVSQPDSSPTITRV
UniProt O60331, sequence (whole entry, looked up): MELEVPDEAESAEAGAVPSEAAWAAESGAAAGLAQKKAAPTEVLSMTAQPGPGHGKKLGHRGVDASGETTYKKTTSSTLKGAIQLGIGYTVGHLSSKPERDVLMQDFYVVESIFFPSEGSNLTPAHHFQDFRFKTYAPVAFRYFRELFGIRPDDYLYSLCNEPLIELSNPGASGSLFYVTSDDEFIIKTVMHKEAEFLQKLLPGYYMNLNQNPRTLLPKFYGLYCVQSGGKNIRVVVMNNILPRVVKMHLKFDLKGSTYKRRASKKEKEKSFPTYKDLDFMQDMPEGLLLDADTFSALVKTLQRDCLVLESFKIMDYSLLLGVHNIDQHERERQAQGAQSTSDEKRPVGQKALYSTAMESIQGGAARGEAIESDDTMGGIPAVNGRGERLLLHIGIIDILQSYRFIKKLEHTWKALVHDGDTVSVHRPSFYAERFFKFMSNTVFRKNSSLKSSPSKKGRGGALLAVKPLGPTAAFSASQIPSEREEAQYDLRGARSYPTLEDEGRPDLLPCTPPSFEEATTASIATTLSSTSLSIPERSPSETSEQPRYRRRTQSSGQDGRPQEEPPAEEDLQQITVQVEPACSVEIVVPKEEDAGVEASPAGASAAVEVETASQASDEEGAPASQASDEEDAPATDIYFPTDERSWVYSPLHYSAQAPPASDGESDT
UniProt Q93YR9, sequence (whole entry, looked up): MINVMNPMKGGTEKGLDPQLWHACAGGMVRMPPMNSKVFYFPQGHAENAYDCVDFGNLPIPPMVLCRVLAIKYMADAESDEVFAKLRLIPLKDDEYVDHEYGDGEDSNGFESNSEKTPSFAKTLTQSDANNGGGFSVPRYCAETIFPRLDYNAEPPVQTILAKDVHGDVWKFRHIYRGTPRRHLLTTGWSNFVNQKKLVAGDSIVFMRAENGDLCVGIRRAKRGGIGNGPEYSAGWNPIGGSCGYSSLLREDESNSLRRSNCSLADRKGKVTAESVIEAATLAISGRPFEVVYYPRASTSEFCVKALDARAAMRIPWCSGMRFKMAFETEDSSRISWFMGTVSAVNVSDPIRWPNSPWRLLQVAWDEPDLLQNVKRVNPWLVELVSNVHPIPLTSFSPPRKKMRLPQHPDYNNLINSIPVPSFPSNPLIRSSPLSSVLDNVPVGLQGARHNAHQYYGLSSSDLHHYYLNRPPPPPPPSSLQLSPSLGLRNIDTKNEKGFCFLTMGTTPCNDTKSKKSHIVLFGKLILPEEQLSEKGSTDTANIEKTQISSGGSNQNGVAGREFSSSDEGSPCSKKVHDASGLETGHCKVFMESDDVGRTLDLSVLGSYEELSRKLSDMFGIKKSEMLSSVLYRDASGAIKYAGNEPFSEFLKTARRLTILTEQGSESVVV
UniProt Q38829, sequence (whole entry, looked up): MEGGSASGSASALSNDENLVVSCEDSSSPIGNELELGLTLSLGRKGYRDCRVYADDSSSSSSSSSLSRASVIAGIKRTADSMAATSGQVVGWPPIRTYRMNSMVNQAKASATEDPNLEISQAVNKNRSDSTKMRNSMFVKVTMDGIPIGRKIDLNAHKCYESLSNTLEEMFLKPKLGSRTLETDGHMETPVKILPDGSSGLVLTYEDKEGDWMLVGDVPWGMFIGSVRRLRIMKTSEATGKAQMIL

Study 1 — method: protein-binding microarray; molecule type: double-stranded DNA, one strand shown; matrix: in vitro; tested at: 940 nM top; setting: 60-bp whole probe; together with: salmon DNA 0.4 mg/ml; relative to: random background probes; direction: higher = stronger binding; shared flanks, not repeated: GCCTAGCAC … GTCTTGATTCGCTTGACGCTGCTG
Target: Interferon regulatory factor 5, full length, phosphomimetic (IRF5, Homo sapiens, UniProt Q13568-2, residues 1-514, S451D/S453D/S456D/S462D)
Sequence	fitted relative affinity [z-score]
TTGGTGCTCATTTTTTTTGCGTGCTAG	0.441
TCAAGACTCTCTTGTCTGACTGTGCTA	-0.0305
TCATGTCCCTATTTAAGACTGTGCTAG	0.308
TTAGGTTTCGACACCGGGTTAGTGCTA	8.85
ATGAAATGCCACACACACACGTGCTAG	0.303
GACCGTATCGGACTGGGGACGTGCTAG	0.55
CTTGTTTCCAGTATATTTAAGTGCTAG	1.3
TTGGGACTGGACACTGGGTTAGTGCTA	-0.285

Study 2 — effect on: enzyme activity; mode: inhibitor; tested at: 0.5 µM; relative to: control
Target: Tyrosine-protein kinase TXK (TXK, Homo sapiens, UniProt P42681)
Construct (P42681 1-527): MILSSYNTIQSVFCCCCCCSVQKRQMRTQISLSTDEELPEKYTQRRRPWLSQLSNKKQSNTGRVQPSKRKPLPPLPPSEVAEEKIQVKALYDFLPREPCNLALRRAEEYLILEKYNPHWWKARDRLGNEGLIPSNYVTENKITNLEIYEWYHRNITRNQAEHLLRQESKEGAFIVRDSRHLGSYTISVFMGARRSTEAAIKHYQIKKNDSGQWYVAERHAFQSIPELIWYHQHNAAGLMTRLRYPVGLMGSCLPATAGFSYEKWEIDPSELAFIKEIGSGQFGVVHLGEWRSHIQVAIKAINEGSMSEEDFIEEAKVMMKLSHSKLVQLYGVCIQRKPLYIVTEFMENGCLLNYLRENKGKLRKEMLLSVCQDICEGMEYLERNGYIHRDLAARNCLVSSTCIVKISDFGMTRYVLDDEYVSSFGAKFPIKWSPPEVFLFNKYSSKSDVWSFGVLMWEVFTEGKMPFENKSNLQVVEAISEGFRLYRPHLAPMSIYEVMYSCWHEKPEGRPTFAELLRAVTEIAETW
SMILES	remaining activity [%]
COc1ccc(CNC(=O)Nc2ncc([N+](=O)[O-])s2)cc1	96.9
CN(C)c1ccc(C=C2C(=O)Nc3ccccc32)cc1	96.1
N#CC(C#N)=C(N)/C(C#N)=C/c1ccc(O)cc1	100
CO[C@H]1C[C@@H]2CC[C@@H](C)[C@@](O)(O2)C(=O)C(=O)N2CCCC[C@H]2C(=O)O[C@H]([C@H](C)C[C@@H]2CC[C@@H](O)[C@H](OC)C2)CC(=O)[C@H](C)/C=C(\C)[C@@H](O)[C@@H](OC)C(=O)[C@H](C)C[C@H](C)/C=C/C=C/C=C/1C	105
O=C(Nc1cccc(Nc2cc(Nc3cccc(C(F)(F)F)c3)ncn2)c1)C1CC1	97.1
COc1cc2nccc(Oc3ccc(NC(=S)NC(=O)c4ccccc4C)cc3)c2cc1OC	66.9
O=C(CCCc1ccc(-c2ccccc2F)cc1)Nc1ccc(O)cc1	97.7
Nc1ccc2ncnc(NCCc3ccc(Oc4ccccc4)cc3)c2c1	102
O=c1c2ccccc2[nH]c(=S)n1CCN1CCC(=C(c2ccc(F)cc2)c2ccc(F)cc2)CC1	100
CCOC(=O)c1c(C)[nH]c(/C=C2\C(=O)Nc3ccccc32)c1C	96.1
COc1ccc(OC)c2c(=S)c3ccccc3[nH]c12	101
O=C1NC(=O)C(c2cn(CCCn3ccnc3)c3ccccc23)=C1Nc1ccccc1	95.3
Cc1nc(-c2ccccc2)c(-c2ccncc2)o1	99.4
O=S(=O)(c1cccc2cnccc12)N1CCCNCC1	84.2

Study 3 — effect on: cell-free assay; method: competition with immobilised ligand; tested at: 1 µM
SMILES: CC(=O)C1=C(C)N(c2cccc(C(F)(F)F)c2)C(=O)N[C@@H]1c1ccc(C#N)nc1
target	remaining binding
ALK (Homo sapiens, UniProt Q9UM73, L1196M)	94.1%
CDK15 (Homo sapiens, UniProt Q96Q40)	100%
GAK (Homo sapiens, UniProt O14976)	97.2%
WEE2 (Homo sapiens, UniProt P0C1S8)	100%
SGK2 (Homo sapiens, UniProt Q9HBY8)	100%
Tyrosine-protein kinase ABL1, phosphorylated (ABL1, Homo sapiens, UniProt P00519, Y253F)	100%
PIP5K1C (Homo sapiens, UniProt O60331)	100%

Study 4 — Sequence: B1 (IAA2); method: two-hybrid; relative to: out of 4 tests; direction: higher = firmer interaction
B1: IAA2 (Arabidopsis thaliana, UniProt P49678); chain MAYEKVNELNLKDTELCLGLPGRTEKIKEEQEVSCVKSNNKRLFEETRDEEESTPPTKTQIVGWPPVRSSRKNNNSVSYVKVSMDGAPYLRKIDLKTYKNYPELLKALENMFKVMIGEYCEREGYKGSGFVPTYEDKDGDWMLVGDVPWDMFSSSCKRLRIMKGSDAPALDSSL
partner	setting	positive tests
IAA11 (Arabidopsis thaliana, UniProt Q38829)	weak activation fusion	0
ARF18 482-602 (Arabidopsis thaliana, UniProt Q9C5W9)	–	0
ARF4 660-788 (Arabidopsis thaliana, UniProt Q9ZTX9)	–	0
IAA20 (Arabidopsis thaliana, UniProt O24410)	weak activation fusion	2
IAA12 (Arabidopsis thaliana, UniProt Q38830)	–	0
ARF16 570-670 (Arabidopsis thaliana, UniProt Q93YR9)	–	0
IAA28 (Arabidopsis thaliana, UniProt Q9XFM0)	–	4
ARF8 699-811 (Arabidopsis thaliana, UniProt Q9FGV1)	–	2
